Results collected from several papers.
Each numbered part is a random draw from the data of one study; scales do not carry over between parts.

Series 1 — technique: protein-binding microarray; molecule type: double-stranded DNA, one strand shown; sample: in vitro; tested at: 2200 nM top; notes: 60-bp whole probe; with: salmon DNA 0.4 mg/ml; relative to: random background probes; direction: higher = stronger binding
Target: Interferon regulatory factor 7, full length, phosphomimetic (IRF7, Homo sapiens, UniProt Q92985, residues 1-503, S471D/S472D/S475D/S476D/S477D/S483D/S484D/S487D)
Sequence of UniProt Q92985 (whole entry, unmodified, looked up): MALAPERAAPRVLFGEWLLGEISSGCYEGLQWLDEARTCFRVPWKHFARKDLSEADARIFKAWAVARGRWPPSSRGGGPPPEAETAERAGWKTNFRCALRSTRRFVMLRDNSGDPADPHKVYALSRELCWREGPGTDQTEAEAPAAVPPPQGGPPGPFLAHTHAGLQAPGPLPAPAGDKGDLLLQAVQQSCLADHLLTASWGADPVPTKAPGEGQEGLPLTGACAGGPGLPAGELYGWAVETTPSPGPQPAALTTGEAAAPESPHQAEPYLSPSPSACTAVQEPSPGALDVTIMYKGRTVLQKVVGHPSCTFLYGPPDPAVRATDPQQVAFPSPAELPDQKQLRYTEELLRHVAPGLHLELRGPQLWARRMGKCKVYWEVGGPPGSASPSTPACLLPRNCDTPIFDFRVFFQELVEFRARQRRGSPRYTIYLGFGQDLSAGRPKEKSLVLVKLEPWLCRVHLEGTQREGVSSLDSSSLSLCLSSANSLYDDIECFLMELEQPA
| Strand | fitted relative affinity [z-score] |
| --- | --- |
| GCCTAGCACTTAGATCTCGGTTTCGATTAGTGCTAGGTCTTGATTCGCTTGACGCTGCTG | 5.21 |
| GCCTAGCACGGCGGTCTCGGTATCGGGACGTGCTAGGTCTTGATTCGCTTGACGCTGCTG | -0.179 |
| GCCTAGCACGACGATATCGCGACTGGAGACGTGCTAGTCTTGATTCGCTTGACGCTGCTG | 0.37 |

Series 2 — technique: aptamer microarray, sandwich; molecule type: DNA with 2'F-ANA; sample: in vitro; tested at: 200 nM; with: Cy3 exosite-II aptamer, 400 nM; direction: higher = stronger binding
Target: Prothrombin, mature alpha-thrombin (F2, Homo sapiens, UniProt P00734)
Notes: whole 15-mer aptamer, many near background
| Strand | mean fluorescence intensity |
| --- | --- |
| GGTTGGTGTGGTTGG (2'F-ANA at 2 3 4 5 7 8 12 13 14) | 53.5 a.u. |
| GGTTGGTGTGGTTGG (2'F-ANA at 1 3 6 7 8 9 12 13) | 411 a.u. |
| GGTTGGTGTGGTTGG (2'F-ANA at 1 3 4 6 8 10 12 14 15) | 51.2 a.u. |

Mixed results
TBP1: TATA-box-binding protein 1 (TBP1, Arabidopsis thaliana, UniProt P28147, residues 1-200, full length assumed)
Sequence of UniProt P28147 (whole entry, looked up): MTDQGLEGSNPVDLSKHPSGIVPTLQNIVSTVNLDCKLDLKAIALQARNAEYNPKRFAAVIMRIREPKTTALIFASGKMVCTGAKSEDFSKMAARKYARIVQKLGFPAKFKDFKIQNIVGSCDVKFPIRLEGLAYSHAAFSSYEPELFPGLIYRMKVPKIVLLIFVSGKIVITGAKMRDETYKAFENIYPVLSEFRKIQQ
| Molecule | target | assay | system | setting | scale | quantity | value |
| --- | --- | --- | --- | --- | --- | --- | --- |
| CATTAAG | TBP1 | protein-binding microarray | double-stranded DNA, one strand shown, in vitro | not given, k-mer, scored over probes, only values ≥0.25 | higher = stronger binding | E-score | 0.252 |
| PhoQ, residues 284 288 289 292 302 303 TNASYF | PhoP, residues 12 14 15 18 19 LWHVM (Escherichia coli, UniProt P23836) | Sort-seq, refers to: YFP reporter | E. coli | PhoQ-PhoP variant library, with: 10 µM Mg2+ | relative to: high Mg2+ state, higher = stronger signaling | fold induction | 4.76 |
| ATAGTTA | TBP1 | protein-binding microarray | double-stranded DNA, one strand shown, in vitro | not given, k-mer, scored over probes, only values ≥0.25 | higher = stronger binding | E-score | 0.275 |
| AGCTATA | TBP1 | protein-binding microarray | double-stranded DNA, one strand shown, in vitro | not given, k-mer, scored over probes, only values ≥0.25 | higher = stronger binding | E-score | 0.294 |

Some of these lines once more (series 1):
| Strand | fitted relative affinity [z-score] |
| --- | --- |
| GCCTAGCACTTAGATCTCGGTTTCGATTAGTGCTAGGTCTTGATTCGCTTGACGCTGCTG | 5.21 |
